Assay results collected from several papers.
Compare with care: the assays were run in different laboratories. “And” joins repeats or separate records; there may be more than shown. Numbers after ± are the reported error.

`Cc1cccc(-c2cccc(C)n2)n1.Cc1cccc(-c2cccc(C)n2)n1.F[P-](F)(F)(F)(F)F.F[P-](F)(F)(F)(F)F.[Ru+2].c1cc2ccc3ccc(-c4nc5c6cccnc6c6ncccc6c5[nH]4)c4ccc(c1)c2c34` gave an EC50 of 47.9 ± 1.5 µM (SK-MEL-28; cell viability; 1% O2, added: green light 523 nm, 100 J/cm2).
For `Cc1cc(Cl)cc(-c2ccnc3cc(CN4C(=O)C5C(C4=O)C5(C)C)sc23)c1C[C@@H]1CNCCO1` (some centres unmarked), “late apoptotic cells” read 11.5% and 5.79% and 6.49% (CHP-212 resistant subline R3; annexin V/PI flow cytometry; 0.3 µM, 48 h).
`COC1CN([C@H]2CC[C@H]([C@@]3(C)Oc4c(Cl)cc(C(=O)NCc5c(SC)cc(C)[nH]c5=O)c(C)c4O3)CC2)C1` — result for “log2 fold change”: 2.58 (RNA-seq, refers to: PTPRD; human, whole blood; dose not given, 24 h; reference: pretreatment baseline).
The selectivity index of `Cc1[nH][n+]([Pd-2]([Br])([Br])[n+]2[nH]c(C)c(CSC3CCCCC3)c2C)c(C)c1CSC1CCCCC1` is reported as 4.5 (Jurkat; cytotoxicity; reference: IC50 HEK293 over IC50 Jurkat).
`Cn1ncc2cc(-c3cncc(Cl)c3N3CCC4(CCNC4=O)CC3)ccc21` — result for “fold change in expression”: 2.44 (LS174T; microarray, refers to: NFE2L2; concentration not given, 24 h, gene set NRF2; reference: untreated cells).
`COc1ccc2c(c1)c(CC(=O)[Se]CC(=O)Nc1cccc(C(F)(F)F)c1)c(C)n2C(=O)c1ccc(Cl)cc1` gave a mean TGI of 3.54 µM (NCI60 prostate subpanel (PC-3, DU-145); total growth inhibition, inhibitor; five-dose).
For `C[C@@H]1Cc2c([nH]c3ccccc23)[C@@H](c2c(F)cc(/C=C/C(=O)O)cc2F)N1C12CC(C1)C2`, “log2 fold change” read -1.86 (MCF7; RNA-seq, refers to: SGK3 mRNA; 1 µM, 24 h, E2-induced gene; reference: DMSO vehicle).
For `O=C(C[Se]C(=O)c1ccccc1Nc1ccccc1)Nc1cccc(C(F)(F)F)c1`, the GI50 was 1.75 µM (NCI60 prostate subpanel (PC-3, DU-145); cell growth, inhibitor; five-dose).
`CCOc1cncc(-c2ccc(NC(=O)C3(c4ccnc(NS(=O)(=O)C5CC5)n4)CCOCC3)nc2)n1` gave an IC50 of 10 µM (ZR-75-1; cell growth or viability, ATP luminescence; 72 h).
The metabolite level of `COC(=O)c1cc(NC2=NC(=O)C(=Cc3ccc(C)cc3)S2)ccc1OC(C)=O` is reported as -0.48 fold change (MCF7; GC-MS, refers to: 1-Monopalmitin; 1 µM; reference: DMSO).
With `CSC(=S)N/N=C(\C)c1ccc(Nc2nnc(-c3ccc(Cl)cc3)c3ccccc23)cc1` the viability was 23.9% (MCF7; cell growth or viability, MTT; 0.312 µM, 24 h).
`Cc1ncsc1-c1ccc(C(C)NC(=O)C2CC(O)CN2C(=O)C(NC(=O)CCCCCCCCCCN2CCCC(Nc3ncc(Cl)c(Nc4ccccc4S(=O)(=O)C(C)C)n3)C2)C(C)(C)C)cc1` (centres unmarked): “log2 fold change” -2.12 (22Rv1; RNA-seq, refers to: RPP25 mRNA; concentration not given; reference: DMSO).
`CCN(CC)CC(=O)Nc1cccc(-n2cc(-c3ccc4ccc(-c5cn(-c6cccc(NC(=O)CN(CC)CC)c6)nn5)cc4c3)nn2)c1` has a fold regulation of -1.22 (RCC4; PCR angiogenesis array, refers to: COL4A3; 5 x IC50, 6 h, normoxia; reference: untreated).
For `CSCC[C@H](NC(=O)[C@H](CCC(N)=O)NC(=O)[C@H](CCCCN)NC(=O)[C@H](CCCNC(=N)N)NC(=O)[C@H](Cc1ccc(O)cc1)NC(=O)[C@H](CCCNC(=N)N)NC(=O)[C@H](CO)NC(=O)[C@H](Cc1ccc(O)cc1)NC(=O)[C@H](CO)NC(=O)[C@H](CC(=O)O)NC(=O)[C@@H](NC(=O)[C@@H](N)Cc1ccccc1)[C@@H](C)O)C(=O)N[C@@H](C)C(=O)N[C@H](C(=O)N[C@@H](CCCCN)C(=O)N[C@@H](CCCCn1cc(C[C@H](NC(=O)CNC(=O)[C@H](CO)NC(=O)[C@H](CCCNC(=N)N)NC(=O)[C@H](CO)NC(=O)[C@H](CC(C)C)NC(=O)[C@H](CC(C)C)NC(=O)CNC(=O)[C@H](C)NC(=O)[C@H](CC(C)C)NC(=O)[C@H](CCCNC(=N)N)NC(=O)[C@H](Cc2c[nH]cn2)NC(=O)[C@@H](NC(=O)[C@@H](N)C(C)C)[C@@H](C)O)C(=O)N[C@H](C(=O)N[C@H](C(=O)N[C@@H](CCCCN)C(=O)N[C@@H](CC(N)=O)C(=O)N[C@@H](CC(N)=O)C(=O)N[C@@H](Cc2ccccc2)C(=O)N[C@H](C(=O)N2CCC[C@H]2C(=O)N[C@H](C(=O)N[C@@H](CC(N)=O)C(=O)N[C@H](C(=O)NCC(=O)N[C@@H](CO)C(=O)N[C@@H](CCCCN)C(=O)N[C@@H](C)C(=O)N[C@@H](Cc2ccccc2)C(N)=O)C(C)C)[C@@H](C)O)C(C)C)C(C)C)C(C)C)nn1)C(=O)N[C@@H](Cc1ccc(O)cc1)C(=O)N[C@@H](CC(C)C)C(=O)N[C@@H](C)C(=O)N[C@@H](C)C(=O)N[C@H](C(=O)N[C@@H](CC(C)C)C(=O)NCC(=O)N[C@@H](CCCCN)C(=O)N[C@@H](CCCNC(=N)N)C(=O)N[C@@H](Cc1ccc(O)cc1)C(=O)N[C@@H](CCCCN)C(=O)N[C@@H](CCC(N)=O)C(=O)N[C@@H](CCCNC(=N)N)C(=O)N[C@H](C(=O)N[C@@H](CCCCN)C(=O)N[C@@H](CC(N)=O)C(=O)N[C@@H](CCCCN)C(N)=O)C(C)C)C(C)C)C(C)C`, the A2 was 3.16 µM (transfected COS-7 cells; cAMP accumulation, antagonist; added: VIP).
With `CC(C)c1ccc(N(C)c2ccc3c(c2)OCC[C@H]3CNc2cnccc2C(=O)O)cc1` the IC50 was no less than 10 µM (BT-474; cell viability, CellTiter-Glo; 7 days).
The phospho-c-Jun level of `C#CCOC(=O)[C@@]1(C)C=C(C(=O)Nc2cccc(C(=O)Nc3ccc(C)c(Nc4nccc(-c5cccnc5)n4)c3)c2)C(=O)CC1` is reported as 0.981 (SH-SY5Y MKK7 active; western blot, refers to: phospho-c-Jun Ser73; 0.1 µM, unit not given; reference: doxycycline without inhibitor).
`CCCCCCc1cccc(C(O)CC(CO)NC(=O)CCCCCCCCCCNC(C)=O)c1` (centres unmarked) has a ceramide level of 14800 pmol/sample and 12000 pmol/sample and 16000 pmol/sample (HeLa; CERT activity, HPLC-MS/MS lipidomics, refers to: ceramide 24; 1 µM, 24 h, not cell-number normalised).
Under “log2 fold change”, `CN1CCCNC(=O)c2cccc(c2)C(=O)NCCCN(C)CCCNc2cccc3c2C(=O)c2cccc(c2C3=O)NCCC1` is recorded as 0.704 (SAS; RNA-seq, refers to: GABPB1-AS1 mRNA; 1 µM, 6 h; reference: untreated cells).
For `[Cl-].[Cl-].[Ru+2].c1ccc(-c2ccccn2)nc1.c1ccc(-c2ccccn2)nc1.c1ccc2cc3nc4c5cccnc5c5ncccc5c4nc3cc2c1`, the EC50 was 135 ± 5 µM (SK-MEL-28; cell viability; dark, normoxia 18.5 % oxygen).
`O=C(C[Se]C(=O)c1cccnc1Nc1cccc(C(F)(F)F)c1)Nc1cccc(C(F)(F)F)c1` has a GI50 of 1.88 µM (NCI60 prostate subpanel (PC-3, DU-145); cell growth, inhibitor; five-dose).
With `CO[C@@H]1[C@@H](OC(N)=O)[C@@H](O)[C@H](Oc2ccc3c(O)c(NC(=O)c4ccc(O)c(CC=C(C)C)c4)c(=O)oc3c2C)OC1(C)C` the colony survival was 0.312% (DLD-1 BRCA2-/-; 100 µM, replicate B; reference: untreated).
With `N#Cc1cccc(/C=C/C(=O)c2ccc(O)cc2)c1` the fold change was 27.6 (U-87 MG; refers to: ZFAND2A; concentration not given; reference: untreated).
For `CNS(=O)(=O)Nc1nccc(Cc2c(C)c3ccc(Oc4ncccc4F)cc3oc2=O)c1F`, the IC50 was greater than 1 µM (NCI-H1755; cell viability; 7 days).
For `CN1CCN(C(=O)c2ccc(-c3cc4c(N5CCC[C@H](C(=O)NCc6ccc(OC(F)(F)F)cc6)C5)ncnc4[nH]3)cc2)CC1`, the inhibition was 82.1% (NCI-H3122; cell growth or viability, MTT; 5 µg/mL, 72 h).
With `COC(=O)c1cc(NC2=NC(=O)C(=Cc3ccc(N(C)C)cc3)S2)ccc1OC(C)=O` the fold change was 0.496 (MCF7; refers to: DDX11 mRNA; 0.81 µM (IC50), 24 h; reference: DMSO).
The colony survival of `COc1ccccc1-c1ccncc1C(=O)Nc1nnc(OCc2ccc(Cl)cc2)s1` is reported as 78.6% and 67.3% and 72.3% (MDA-MB-436 BRCA1-mutant; 0.1875 µM, single replicate; reference: untreated).
`COc1cc(N2CCN(C(=O)C3CCCN3)CC2)ccc1Nc1ncc(Cl)c(Nc2ccccc2P(C)(C)=O)n1` (centres unmarked): “late apoptotic cells” 17% (Ba/F3 EML4-ALK; annexin V flow cytometry; concentration not given, 24 h).
`O=C(N[C@@H](Cc1ccc(OCCCCC2CCNCC2)cc1)C(=O)O)c1nc2ccccc2o1.O=C(O)C(F)(F)F` has an ADP-induced aggregation of 0.127 and 0.275 (platelets; impedance aggregometry; human, diluted whole blood; 150 nM, added: ADP; reference: untreated).
`CC1(C)CC[C@@]2(CO)C(=C3C=C[C@@H]4[C@@]5(C)CC[C@H](O)[C@@](C)(CO)[C@@H]5CC[C@@]4(C)[C@]3(C)C[C@@H]2O)C1` has a protein level of 0.704 and 0.628 and 1.15 (HepG2, negative control siRNA; Western blot, refers to: PPAR-α; concentration not given, high dose, unit not given, added: ethanol; reference: β-actin).
`O=C(C[Se]C(=O)c1ccccc1Nc1cccc(C(F)(F)F)c1)Nc1cccc(C(F)(F)F)c1` has a mean TGI of 3.6 µM (NCI60 prostate subpanel (PC-3, DU-145); total growth inhibition, inhibitor; five-dose).
For `O=C(N1CCCC1)n1cc(-c2ccc(-c3ccccc3)cc2)nn1`, the SILAC ratio was 0.89 (mouse T cells; N-terminal labelling proteomics, refers to: TMSB4X N-terminal peptides; 0.001 µM, 6 h; reference: DMSO).
The EC50 of `Cc1cccc(-c2cccc(C)n2)n1.Cc1cccc(-c2cccc(C)n2)n1.F[P-](F)(F)(F)(F)F.F[P-](F)(F)(F)(F)F.[Ru+2].c1ccc2c(c1)Cc1cc(-c3nc4c5cccnc5c5ncccc5c4[nH]3)ccc1-2` is reported as 23.6 ± 1.1 µM (SK-MEL-28; cell viability; 1% O2, added: green light 523 nm, 100 J/cm2).
